Experimental data of several laboratories.
Parts stem from different laboratories: compare values within a part only.

Sample 1
Target: Centromere-binding protein 1, full length, N-terminal tag (CBF1, Saccharomyces cerevisiae, UniProt P17106, residues 1-351)
Sequence of UniProt P17106 (whole entry, looked up): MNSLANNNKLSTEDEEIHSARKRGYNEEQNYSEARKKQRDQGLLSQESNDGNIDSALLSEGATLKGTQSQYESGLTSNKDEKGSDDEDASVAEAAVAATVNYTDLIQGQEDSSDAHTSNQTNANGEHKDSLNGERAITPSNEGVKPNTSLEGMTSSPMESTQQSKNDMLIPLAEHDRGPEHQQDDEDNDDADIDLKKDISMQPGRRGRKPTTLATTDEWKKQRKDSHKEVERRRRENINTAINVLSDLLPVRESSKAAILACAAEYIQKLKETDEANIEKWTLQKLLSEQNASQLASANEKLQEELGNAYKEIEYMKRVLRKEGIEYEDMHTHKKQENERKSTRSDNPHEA
Technique: protein-binding microarray
Molecule type: double-stranded DNA, one strand shown
Matrix: in vitro
Concentration: 0.8 µM
Notes: whole 60-bp probe, no competitor
Direction: higher = stronger binding
Endpoint: fluorescence intensity
GAACTCATAACCTATGTCACCATCTAACACCGTTAGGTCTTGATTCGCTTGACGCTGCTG: 546 a.u.
CCTAACTACTATAACCATGTGATATAGCTTCGTACAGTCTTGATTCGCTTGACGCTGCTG: 1990 a.u.
CTAAAAACATAATACATGGTGGTGGTGTCGTTGTTCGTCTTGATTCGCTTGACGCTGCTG: 542 a.u.
TGTACGAAGCTATTTCGTGCTCCTATAGTAGTTAGGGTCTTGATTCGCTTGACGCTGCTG: 525 a.u.
GAACAAACCATCTGATGTTAGATAATATATAAGTAGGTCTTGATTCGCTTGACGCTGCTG: 646 a.u.
CTAGTCAGGAGGGTGCACGTTGAAGCAGTGCGTTTCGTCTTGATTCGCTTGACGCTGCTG: 569 a.u.
GAACTGAGACTTGATCACGATAAATACCTACCATAGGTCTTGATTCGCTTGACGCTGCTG: 640 a.u.
CTAGCTTTGTAATCGCATGTGAGATAATCAAGGTTCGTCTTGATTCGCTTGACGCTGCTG: 648 a.u.
CTATACAAAAGAATCCTCGTGTGTTTGTGTGTGTTCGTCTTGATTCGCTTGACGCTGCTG: 567 a.u.

Sample 2
Target: Interferon regulatory factor 3, full length, phosphomimetic (IRF3, Homo sapiens, UniProt Q14653, residues 1-427, S386D/S396D/S398D/S402D/T404D/S405D)
Sequence of UniProt Q14653 (whole entry, unmodified, looked up): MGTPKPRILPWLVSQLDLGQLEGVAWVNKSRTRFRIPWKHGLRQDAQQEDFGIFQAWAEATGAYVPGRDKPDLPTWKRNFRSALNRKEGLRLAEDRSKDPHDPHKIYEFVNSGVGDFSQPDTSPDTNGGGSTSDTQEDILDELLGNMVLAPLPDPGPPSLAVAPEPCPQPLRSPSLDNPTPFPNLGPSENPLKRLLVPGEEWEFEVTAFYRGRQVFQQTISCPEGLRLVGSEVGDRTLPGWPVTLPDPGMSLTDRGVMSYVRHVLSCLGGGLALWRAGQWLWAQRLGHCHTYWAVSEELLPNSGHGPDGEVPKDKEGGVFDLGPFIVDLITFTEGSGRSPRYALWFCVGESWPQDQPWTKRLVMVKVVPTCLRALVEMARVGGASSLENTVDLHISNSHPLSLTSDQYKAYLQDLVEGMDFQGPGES
Technique: protein-binding microarray
Molecule type: double-stranded DNA, one strand shown
Matrix: in vitro
Concentration: 2540 nM top
Notes: 60-bp whole probe
With: salmon DNA 0.4 mg/ml
Relative to: random background probes
Direction: higher = stronger binding
Endpoint: fitted relative affinity
Constant ends, left off below: GCCTAGCAC … GTCTTGATTCGCTTGACGCTGCTG
TTAGGTTTCGGGAATGGGTTAGTGCTA: 3.21 z-score
GACGGTCTCCTCCTCCTGACGTGCTAG: 0.921 z-score
TTAGGTATCGGGTTTCGGATAGTGCTA: 3.42 z-score
CCATCGATTTCTCTTTCCCAAGTGCTA: 2.71 z-score
GACGGTCTCCTACTGCTGAGGTGCTAG: 1.09 z-score
GACGTTATCGGGTTTCGAGACGTGCTA: 1.44 z-score
TCAGAAATTCCTCTGAAACTGTGCTAG: 0.0408 z-score
TCAAGTAGCTTTCTGAGACTGTGCTAG: 0.0901 z-score
GACCGTATCGACTATCGGGACGTGCTA: 1.2 z-score

Sample 3
Target: Ras GTPase-activating protein-binding protein 1, full length (G3BP1, Homo sapiens, UniProt Q13283)
Sequence of UniProt Q13283 (whole entry, looked up): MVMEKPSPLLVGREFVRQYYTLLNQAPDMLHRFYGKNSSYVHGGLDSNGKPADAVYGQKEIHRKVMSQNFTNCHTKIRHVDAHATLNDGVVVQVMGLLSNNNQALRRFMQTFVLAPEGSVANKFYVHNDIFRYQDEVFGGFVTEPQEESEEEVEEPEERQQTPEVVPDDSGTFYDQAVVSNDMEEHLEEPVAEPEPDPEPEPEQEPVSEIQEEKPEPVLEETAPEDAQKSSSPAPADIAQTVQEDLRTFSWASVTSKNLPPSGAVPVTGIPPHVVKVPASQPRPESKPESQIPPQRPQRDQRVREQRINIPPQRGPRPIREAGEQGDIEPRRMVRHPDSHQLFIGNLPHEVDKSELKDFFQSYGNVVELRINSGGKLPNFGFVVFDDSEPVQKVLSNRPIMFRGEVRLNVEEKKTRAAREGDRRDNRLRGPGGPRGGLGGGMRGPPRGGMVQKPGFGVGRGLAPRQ
Technique: RNA Bind-n-Seq
Molecule type: RNA
Matrix: in vitro
Concentration: 200 nM
Notes: whole 134-nt RNA, ends assumed
With: 150 mM LiCl
Relative to: input library
Direction: higher = stronger binding
Endpoint: log2 enrichment
All molecules: 7-deaza-guanosine replaces G
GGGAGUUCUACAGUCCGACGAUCUCCUGUGCUACACAUCGUAUGUACCGAAUCGGGUUUUUUGGGUUUUUUGGGUUUUUUGGAAAGUAUUAUGUUACGCCGUUCGGAUCUGCAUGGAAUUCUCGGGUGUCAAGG: 0.595
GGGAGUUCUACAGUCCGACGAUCAAGUCCUGUGCUACACAUCGUAUGUACCGAAUCGGGGUUUUGGUUUUGGGUUUUGGAAAGUAUUAUGUUACGCCGUUCGGAUCUGCACUUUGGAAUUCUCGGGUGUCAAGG: -0.483
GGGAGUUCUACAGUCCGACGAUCACCAUGCAGGUGGGCAUCUUUGGGAAGUGGGGCAAGGGGGGGAUAUGGAGGGGGGUAACACUUUGGGAACAGGUGGUCCCAGGUCGUUUCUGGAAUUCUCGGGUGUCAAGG: 0.256
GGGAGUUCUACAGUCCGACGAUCAAGUCCUGUGCUACACAUCGUAUGUACCGAAUCGGCCCCGGCCCCGGGCCCCGGGGAAAGUAUUAUGUUACGCCGUUCGGAUCUGCACUUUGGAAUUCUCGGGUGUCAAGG: -0.275
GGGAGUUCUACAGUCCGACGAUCCACAGACAACACGCACCCACACAGACACAGAGGGAAGGGGUUGGGAUGGGGACAGGGAAAACAGCAGGGCGGGGUAGGACCCCAGCCCCUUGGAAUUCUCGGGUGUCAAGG: -0.581
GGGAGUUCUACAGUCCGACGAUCGUCCUGUGCUACACAUCGUAUGUACCGAAUCGGGGUUUGGGGAAAAAAAGGGGAGGGGAAAGUAUUAUGUUACGCCGUUCGGAUCUGCACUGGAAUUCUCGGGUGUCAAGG: -0.0519
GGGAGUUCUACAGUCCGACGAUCACCAUGCAGGUGGGCAUCUUUGGGAAGUGGGGCAAGGGGGGGAUAGGGAGGGGGGUAACACUGUGGGAACAGGUGGUCCCAGGUCGUUUCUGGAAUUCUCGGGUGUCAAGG: 0.155

Mixed results
PhoQ, residues 284 288 289 292 302 303 SIHLQL  fold induction (PhoP, residues 12 14 15 18 19 LWHVM (Escherichia coli, UniProt P23836); Sort-seq, item: YFP reporter; E. coli; PhoQ-PhoP variant library, with: 10 µM Mg2+; relative to: high Mg2+ state, higher = stronger signaling): 1.13

For quick reference, copied from above (mixed results):
PhoQ, residues 284 288 289 292 302 303 SIHLQL  fold induction (PhoP, residues 12 14 15 18 19 LWHVM (Escherichia coli, UniProt P23836); Sort-seq, item: YFP reporter; E. coli; PhoQ-PhoP variant library, with: 10 µM Mg2+; relative to: high Mg2+ state, higher = stronger signaling): 1.13
